{"data": "Assay results pooled from the literature", "note": "Numbered parts are unrelated; each lists some results of a single study. Changes are numbered by the printed parent chain."}
{"data": "Series 1", "target": "CCNA2, cyclin fold, Cln2 fusion (human)", "method": "yeast growth competition, sequencing", "matrix": "yeast", "notes": "strong parent motif", "reference": "not given", "direction": "higher = stronger binding", "parent": "viral docking peptide; PGASRRLFGSSAD; partner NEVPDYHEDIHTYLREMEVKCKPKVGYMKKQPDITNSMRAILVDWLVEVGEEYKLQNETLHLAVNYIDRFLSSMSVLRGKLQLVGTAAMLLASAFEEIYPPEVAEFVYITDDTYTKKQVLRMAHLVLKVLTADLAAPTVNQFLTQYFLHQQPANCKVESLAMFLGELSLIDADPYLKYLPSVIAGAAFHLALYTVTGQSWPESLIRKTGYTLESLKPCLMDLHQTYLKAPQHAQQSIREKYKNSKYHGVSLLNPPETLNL"}
{"Change": "PGASKRLLGSSAD [R5K F8L]", "normalised enrichment score": 0.331}
{"Change": "PGASRRLAGSSAD [F8A]", "normalised enrichment score": 0.125}
{"Change": "PGASRRLFGSSAA [D13A]", "normalised enrichment score": 2.57}
{"Change": "PGASRRAFGSSAD [L7A]", "normalised enrichment score": 0.184}
{"Change": "PGASRRLFGASAD [S10A]", "normalised enrichment score": 2.04}
{"Change": "PGASRRLFASSAD [G9A]", "normalised enrichment score": 4.02}
{"data": "Series 2", "target": "UBE2D4 UBC core domain (UniProt Q9Y2X8)", "method": "yeast two-hybrid", "matrix": "yeast", "notes": "mostly zero background", "reference": "not given", "direction": "higher = stronger interaction", "B1": "RNF149 RING domain (UniProt Q8NC42); chain EKGIDVDAENCAVCIENFKVKDIIRILPCKHIFHRICIDPWLLDHRTCPMCKLDVIKALGYW", "B2": "NSMCE1 RING domain (UniProt Q8WV22); chain RETYPDAVKICNICHSLLIQGQSCETCGIRMHLPCVAKYFQSNAEPRCPHCNDYWPHEIPKV", "B3": "TRIM55 RING domain (UniProt Q9BYV6); chain TMDNLEKQLICPICLEMFTKPVVILPCQHNLCRKCASDIFQASNPYLPTRGGTTMASGGRFRCPSCRHEVVLDRHG", "Construct (chain)": "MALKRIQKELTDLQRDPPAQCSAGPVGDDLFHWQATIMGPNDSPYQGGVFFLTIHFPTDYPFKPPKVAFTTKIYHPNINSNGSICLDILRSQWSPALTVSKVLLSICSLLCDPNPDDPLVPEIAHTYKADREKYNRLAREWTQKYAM"}
{"Sequence": "B1 (RNF149 RING domain)", "lacZ reporter activity": 0}
{"Sequence": "B2 (NSMCE1 RING domain)", "lacZ reporter activity": 0}
{"Sequence": "B3 (TRIM55 RING domain)", "lacZ reporter activity": 0}
{"data": "Series 3", "target": "Ras GTPase-activating protein-binding protein 1, full length (G3BP1, Homo sapiens, UniProt Q13283)", "method": "RNA Bind-n-Seq", "form": "RNA", "matrix": "in vitro", "tested at": "200 nM", "notes": "whole 134-nt RNA, ends assumed", "with": "150 mM LiCl", "reference": "input library", "direction": "higher = stronger binding", "library": "7-deaza-guanosine replaces G", "all sequences stand within": "GGGAGUUCUACAGUCCGACGAUC … UGGAAUUCUCGGGUGUCAAGG", "chain of UniProt Q13283 (whole entry, looked up)": "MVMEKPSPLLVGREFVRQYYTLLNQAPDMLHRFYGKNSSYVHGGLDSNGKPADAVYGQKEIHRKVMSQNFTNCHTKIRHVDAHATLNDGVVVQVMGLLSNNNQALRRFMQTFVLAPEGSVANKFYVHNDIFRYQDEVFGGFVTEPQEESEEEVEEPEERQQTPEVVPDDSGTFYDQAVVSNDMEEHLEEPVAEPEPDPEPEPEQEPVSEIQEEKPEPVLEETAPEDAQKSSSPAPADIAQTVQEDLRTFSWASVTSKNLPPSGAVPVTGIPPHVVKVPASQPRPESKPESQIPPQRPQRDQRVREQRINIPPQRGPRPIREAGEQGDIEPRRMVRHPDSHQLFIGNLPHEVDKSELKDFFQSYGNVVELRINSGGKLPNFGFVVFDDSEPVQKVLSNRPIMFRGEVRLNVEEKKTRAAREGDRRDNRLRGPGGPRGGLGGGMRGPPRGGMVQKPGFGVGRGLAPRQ"}
{"Oligonucleotide": "CAAGUCCUGUGCUACACAUCGUAUGUACCGAAUCGGGAAAGGGUGGGUUUUUGGGAAAGUAUUAUGUUACGCCGUUCGGAUCUGCACUUC", "log2 enrichment": -0.382}
{"Oligonucleotide": "UGGCCCUGGUGGCAUGCGGGGAGGAAGAGGUGGCCUCAUGGAUCGUGGUGGUCCCUGUGGAAUGUUCAGAGGUGGCCGUGGUGGAGACAG", "log2 enrichment": 0.653}
{"Oligonucleotide": "ACCAUGCAGGUGGGCAUCUUUGGGAAGUGGGGCAAGGGGGGGAUAGGGAGGCGGGUAACACUUUGGGAACAGGUGGUCCCAGGUCGUUUC", "log2 enrichment": 0.223}
{"Oligonucleotide": "UGGGAGGUGGAUUUUGUUUAUUUUUUCAGCUCAUUUCCAGGGGUGGGAAUUUUUUUUUAAUAUGUGUCAUGAAUAAAGUUGUUUUUGAAA", "log2 enrichment": -0.269}
{"Oligonucleotide": "CACAGACAACACGCACCCACACAGACACAGAGGGAAGGGGUUGGGAUGGGGACAGGGUGCACAGCAGGGCGGGGUAGGACCCCAAACCCU", "log2 enrichment": -1.79}
{"Oligonucleotide": "UGGCCCUGGUGGCAUGCGGGGAGGAAGAGGUGGCCUCAUGGAUCGUGGUGGUCCCGGUGGAAUGUUCAGAGGUGGCUGUGGUGGAGACAG", "log2 enrichment": -0.152}
{"Oligonucleotide": "GUCCUGUGCUACACAUCGUAUGUACCGAAUCGGGCCCCCGGGGCCCCCGGGGCCCCCGGAAAGUAUUAUGUUACGCCGUUCGGAUCUGCA", "log2 enrichment": -0.0682}
{"Oligonucleotide": "UGGGAGGUGGAUUUUGUUUAUUUUUUUAGCUCAUUUCCAGGGUUGGGAAUUUUUUUUUAAUAUGUGUCAUGAAUAAAGUUGUUUUUGAAA", "log2 enrichment": -0.954}
{"data": "Series 4", "target": "HLA class I histocompatibility antigen, A alpha chain, allele A*80:01 (Homo sapiens, UniProt P04439)", "effect on": "peptide-MHC binding", "form": "peptide", "tested at": "concentration not given"}
{"Sequence": "TSDYINTSL", "binding": "inactive"}
{"Sequence": "HTEFQTVSF", "binding": "inactive"}
{"Sequence": "LKEKSSLRY", "binding": "inactive"}
